Measured values pooled from the literature.
Each line is one published result; not all experiments were run side by side. Several values in a cell are separate wells, animals, samples, runs or records. ± gives the spread as reported.

Fc1ccc(Nc2nc(NC3CCCCC3)c3ccccc3n2)cc1F — pIC50 (transfected HEK293 cells; β-arrestin2 recruitment, negative allosteric modulator, BRET; 30 min pre-incubation, β1AR ECL1 chimera, with: isoproterenol 1 µM): 6.3
CNC(NN=Cc1ccc([N+](=O)[O-])o1)=[S+][Au-][Cl] — cell fraction ANV+/PI+ (CAKI-1; annexin V/PI flow cytometry; 15 µM, 72 h): 5 ± 0.7%
CO[C@@H]1[C@@H](OC(N)=O)[C@@H](O)[C@H](Oc2ccc3c(O)c(NC(=O)c4ccc(O)c(CC=C(C)C)c4)c(=O)oc3c2C)OC1(C)C — colony count (HCT-116 BRCA2-/-; 100 µM, replicate 2): 24.5
Cn1ncc2cc(-c3cncc(Cl)c3N3CCC4(CCNC4=O)CC3)ccc21 — log2 fold change (LS174T; gene expression, microarray, item: ALOX5 mRNA; concentration not given, 24 h; baseline: untreated cells): 2.49
CN1CCCNC(=O)c2cccc(c2)C(=O)NCCCN(C)CCCNc2cccc3c2C(=O)c2cccc(c2C3=O)NCCC1 — log2 fold change (SAS; RNA-Seq, item: MRPS33 mRNA; 1 µM, 6 h; baseline: untreated cells): 0.735
Cc1cnc(NC(=O)c2cccc([C@@H]3C[C@H]3NC3CCC3)c2)s1 — relative growth (SET-2; cell growth, CellTiter-Glo; 0.1 µM, 7 d; baseline: vehicle): 103% and 102% and 98.5%
CCOc1cncc(-c2ccc(NC(=O)C3(c4ccnc(NS(=O)(=O)C5CC5)n4)CCOCC3)nc2)n1 — IC50 (KG-1a; cell proliferation, CellTiter-Glo; 72 h): 0.037 µM
COC(=O)c1cc(NC2=NC(=O)C(=Cc3ccc(N(C)C)cc3)S2)ccc1OC(C)=O — fold change (MCF7; item: GTF2H2C mRNA; 0.81 µM (IC50), 24 h; baseline: DMSO): 0.291
CCN(CC)CC(=O)Nc1cccc(-n2cc(-c3ccc4ccc(-c5cn(-c6cccc(NC(=O)CN(CC)CC)c6)nn5)cc4c3)nn2)c1 — fold regulation (RCC4; PCR angiogenesis array, item: VEGFB; 5 x IC50, 4 h, normoxia; baseline: untreated): 1.02 fold
CCCC[C@H](N)C(=O)N[C@H]1CSCc2ccc(cc2)-c2ccc(cc2)CSC[C@@H](C(=O)N[C@H](C(N)=O)[C@@H](C)O)NC(=O)[C@H](CCCCN)NC(=O)[C@H](CCCCN)NC(=O)[C@H](CCCCN)NC(=O)[C@H](Cc2ccc(O)cc2)NC(=O)[C@H](CC(N)=O)NC(=O)[C@H](CC(C)C)NC1=O — inhibition (U2OS expressing KRAS G12D; KRAS G12D multimerisation, split luciferase clustering; 50 µM, 24 h): ~50%
O=C(Nc1ccc(Sc2ccc3c(/C=C/c4ccccn4)n[nH]c3c2)cc1)c1ccco1 — GI50 (Ba/F3 TEL-VEGFR3; cell growth, CCK-8): 3.8 µM
C=CS(=O)(=O)Oc1ccc(OC)c(-c2c[nH]c3ncc(-c4cncc(C(=O)N(C)C)c4)cc23)c1 — cytotoxicity (non-BCR-ABL leukaemia cells; concentration not given): not toxic
CNS(=O)(=O)Nc1nccc(Cc2c(C)c3ccc(Oc4ncccc4F)cc3oc2=O)c1F — IC50 (ChaGo-K-1; cell viability; 7 days): 0.00138 µM
COC(=O)c1cc(NC2=NC(=O)C(=Cc3ccc(C)cc3)S2)ccc1OC(C)=O — metabolite level (MCF7; GC-MS, item: D-Arabinose; 1 µM; baseline: DMSO): -0.24 fold change
COc1ccccc1C(=O)NCC(=O)Nc1ccc2[nH]nc(/C=C/c3ccccn3)c2c1 — GI50 (Ba/F3 TEL-VEGFR3; cell growth, CCK-8): 4.5 µM
COCCCCCNc1nc(NCCCCCCN(C)C)c2cc(NC(=O)/C=C/CN(C)C)ccc2n1 — viability (MCF7; CellTiter-Glo; 3.125 µM, 48 h, unit not given; baseline: DMSO-treated cells): 1.07
COc1cccc(OC)c1-c1cc(C(=O)NC2(C(=O)O)C3CC4CC(C3)CC2C4)nn1-c1ccc(C(=O)N(C)CCCN(C)CCCN(C)C(=O)[C@H](CCCCNC(=O)[C@H](CC(C)C)NC(=O)C2OC2C(=O)O)NC(=O)CN2CCN(CC(=O)[O-])CCN(CC(=O)[O-])CCN(CC(=O)[O-])CC2)cc1C(C)C.[177Lu+3] (mixture of isomers) — internalized fraction (HT-29; 240 min, 4 h; baseline: added activity): 5.43 ± 0.57%
[Cl-].[Cl-].[Ru+2].c1ccc(-c2ccccn2)nc1.c1ccc(-c2ccccn2)nc1.c1ccc2cc3nc4c5cccnc5c5ncccc5c4nc3cc2c1 — phototherapeutic index (SK-MEL-28; resazurin; normoxia, with: red light 633 nm; baseline: dark EC50 over light EC50): 185
CC1(C)C[C@@H](Nc2cccc(-c3sc(C(=O)O)c(OCC(=O)O)c3Cl)c2)CCN1S(=O)(=O)Cc1cccc(NC(=O)CN2CCC(c3ccc4c(c3)oc(=O)n4C3CCC(=O)NC3=O)CC2)c1 (stereo partly shown) — fold change (B16-F10; HTRF, item: phospho-STAT1 Tyr701; 0.005 µM, with: IFN-γ; baseline: DMSO): 0.947 and 1 and 0.98 and 1.03 and 0.994 and 1.02
CN(C)CCN1CCN(c2ccc3nc(-c4ccc5nc(-c6ccc(C(F)(F)F)cc6)[nH]c5c4)[nH]c3c2)CC1 — growth percent (KM12; SRB; 10 µM, 48 h): 26.5%
CCCCCCCCN(CCC(=O)Nc1ccccc1)C(=O)C1CCCN1 (stereo not shown) — viability (progeroid mouse fibroblasts, Lmna G609G/G609G; MTT; 2 µM, 72 h; baseline: vehicle-treated wild type): 70 ± 8%
COc1cc(N2CCN(C(=O)C3CCCN3)CC2)ccc1Nc1ncc(Cl)c(Nc2ccccc2P(C)(C)=O)n1 (stereo not shown) — early apoptotic cells (NCI-H3122; annexin V/PI flow cytometry; 500 nM, 24 h): 14%
CCCCCCCCCCCC(=O)N[C@H](CO)C[C@@H](O)c1ccccc1 — sphingomyelin level (HeLa; CERT activity, HPLC-MS/MS lipidomics, item: sphingomyelin 20; 1 µM, 24 h, not cell-number normalised): 4920 pmol/sample and 4430 pmol/sample and 4250 pmol/sample
CN(C)c1ccc(-n2cc(COC(=O)[C@@]3(C)C=C(C(=O)OC(C)(C)C)C(=O)CC3)nn2)cc1 — pERK/ERK ratio (HeLa; quantitative western blot; concentration not given, 20 (unit not given), with: EGF): 0.0813
COc1ccccc1-c1ccncc1C(=O)Nc1nnc(OCc2ccc(Cl)cc2)s1 — colony survival (MDA-MB-436 BRCA1-mutant; 0.1875 µM, mean of 3 replicates; baseline: untreated): 72.7%
Cc1ccc(-n2cc(CSc3nc4ccccc4n3Cc3cn(-c4ccc(C)cc4)nn3)nn2)cc1 — viability (MDA-MB-231; MTT; 7.81 ppm): 39.4%
CCC(=CCc1c(O)cc2c(c1O)C(=O)CC(c1ccc(O)cc1)O2)CC (stereo not shown) — necrotic cells (HeLa; annexin V/PI staining; range over 12 to 48 µM): ≤ 4.61%
Cc1ncsc1-c1ccc(C(C)NC(=O)C2CC(O)CN2C(=O)C(NC(=O)CCCCCCCCCCN2CCCC(Nc3ncc(Cl)c(Nc4ccccc4S(=O)(=O)C(C)C)n3)C2)C(C)(C)C)cc1 (stereo not shown) — log2 fold change (22Rv1; RNA-seq, item: ZNF629 mRNA; concentration not given; baseline: DMSO): -1.25
COc1cc(N2CCN(C(=O)CN)CC2)ccc1Nc1ncc(Cl)c(Nc2ccccc2P(C)(C)=O)n1 — viability (NCI-H3122; CCK-8; 10 nM, 48 h): 69%
CC(C)c1ccc(N(C)c2ccc3c(c2)OCC[C@H]3CNc2cnccc2C(=O)O)cc1 — IC50 (NCI-H1435; cell growth or viability, ATP luminescence; 7 days): ≥ 10 µM
O=C(NCCCSc1ccc2c(/C=C/c3ccccn3)n[nH]c2c1)c1ccc(Cl)c(C(F)(F)F)c1 — GI50 (Ba/F3 TEL-VEGFR3; cell growth, CCK-8): 0.93 µM

A few entries again:
Cn1ncc2cc(-c3cncc(Cl)c3N3CCC4(CCNC4=O)CC3)ccc21 — log2 fold change (LS174T; gene expression, microarray, item: ALOX5 mRNA; concentration not given, 24 h; baseline: untreated cells): 2.49
CN1CCCNC(=O)c2cccc(c2)C(=O)NCCCN(C)CCCNc2cccc3c2C(=O)c2cccc(c2C3=O)NCCC1 — log2 fold change (SAS; RNA-Seq, item: MRPS33 mRNA; 1 µM, 6 h; baseline: untreated cells): 0.735
